# Earlier results that unrelated publications cite.
# Each line is one published result; not all experiments were run side by side. ± marks the error that the study gave.
# Midkine: Midkine (Homo sapiens, UniProt P21741)
# Chain of UniProt P21741 (whole entry, looked up): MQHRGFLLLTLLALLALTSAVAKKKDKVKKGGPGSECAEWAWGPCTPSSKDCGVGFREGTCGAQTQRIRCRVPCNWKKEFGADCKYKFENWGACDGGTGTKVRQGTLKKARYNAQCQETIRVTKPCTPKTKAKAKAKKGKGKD
# Si: Sucrase-isomaltase, intestinal (Si, Rattus norvegicus, UniProt P23739)
# Chain of UniProt P23739 (whole entry, looked up): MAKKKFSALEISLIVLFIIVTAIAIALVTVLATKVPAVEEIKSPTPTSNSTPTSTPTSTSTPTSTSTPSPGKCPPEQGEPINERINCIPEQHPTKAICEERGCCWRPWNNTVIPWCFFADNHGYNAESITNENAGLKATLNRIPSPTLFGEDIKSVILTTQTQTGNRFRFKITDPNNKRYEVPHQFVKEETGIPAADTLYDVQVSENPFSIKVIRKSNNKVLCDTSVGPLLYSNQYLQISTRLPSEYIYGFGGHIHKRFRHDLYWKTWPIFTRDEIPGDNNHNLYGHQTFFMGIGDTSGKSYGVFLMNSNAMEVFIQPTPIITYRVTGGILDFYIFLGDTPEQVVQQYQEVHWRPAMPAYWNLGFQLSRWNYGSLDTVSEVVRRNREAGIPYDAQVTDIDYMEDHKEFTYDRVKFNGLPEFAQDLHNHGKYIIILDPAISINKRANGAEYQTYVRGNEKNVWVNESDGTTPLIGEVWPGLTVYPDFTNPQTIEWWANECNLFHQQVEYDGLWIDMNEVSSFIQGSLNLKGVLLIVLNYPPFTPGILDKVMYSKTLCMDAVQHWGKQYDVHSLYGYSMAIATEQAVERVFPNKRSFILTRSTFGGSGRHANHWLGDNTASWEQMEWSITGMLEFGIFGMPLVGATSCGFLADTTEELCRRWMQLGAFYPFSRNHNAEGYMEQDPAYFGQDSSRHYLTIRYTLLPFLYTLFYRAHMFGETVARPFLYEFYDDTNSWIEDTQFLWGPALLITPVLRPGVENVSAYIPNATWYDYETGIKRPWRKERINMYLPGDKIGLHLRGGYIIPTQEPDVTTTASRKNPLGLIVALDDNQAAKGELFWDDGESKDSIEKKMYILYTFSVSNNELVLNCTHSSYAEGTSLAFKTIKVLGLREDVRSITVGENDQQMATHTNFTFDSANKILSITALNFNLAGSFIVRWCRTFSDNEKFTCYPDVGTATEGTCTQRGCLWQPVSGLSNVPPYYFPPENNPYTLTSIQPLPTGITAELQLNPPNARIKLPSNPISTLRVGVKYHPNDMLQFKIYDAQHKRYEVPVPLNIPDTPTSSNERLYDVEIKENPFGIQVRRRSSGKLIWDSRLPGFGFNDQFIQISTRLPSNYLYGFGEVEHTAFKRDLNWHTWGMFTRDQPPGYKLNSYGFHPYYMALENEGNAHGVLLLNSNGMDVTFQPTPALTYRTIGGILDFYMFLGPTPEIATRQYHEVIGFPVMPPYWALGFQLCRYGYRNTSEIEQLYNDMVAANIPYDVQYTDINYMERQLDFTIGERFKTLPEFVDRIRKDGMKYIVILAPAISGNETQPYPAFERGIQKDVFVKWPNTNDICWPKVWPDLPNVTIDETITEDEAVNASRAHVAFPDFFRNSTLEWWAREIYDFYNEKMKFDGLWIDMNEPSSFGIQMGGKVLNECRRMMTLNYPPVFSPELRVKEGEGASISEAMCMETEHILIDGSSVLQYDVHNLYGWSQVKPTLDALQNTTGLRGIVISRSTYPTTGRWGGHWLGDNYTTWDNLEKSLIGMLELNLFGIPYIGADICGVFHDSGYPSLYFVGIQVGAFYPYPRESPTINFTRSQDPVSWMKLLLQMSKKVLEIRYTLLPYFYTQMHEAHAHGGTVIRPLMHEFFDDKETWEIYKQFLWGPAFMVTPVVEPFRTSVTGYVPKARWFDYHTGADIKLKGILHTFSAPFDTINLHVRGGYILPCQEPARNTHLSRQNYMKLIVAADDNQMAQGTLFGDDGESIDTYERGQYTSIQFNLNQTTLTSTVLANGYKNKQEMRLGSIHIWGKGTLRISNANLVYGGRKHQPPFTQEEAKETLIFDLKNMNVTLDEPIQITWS
# SIRT6: NAD-dependent protein deacylase sirtuin-6 (SIRT6, Homo sapiens, UniProt Q8N6T7)
# Chain of UniProt Q8N6T7 (whole entry, looked up): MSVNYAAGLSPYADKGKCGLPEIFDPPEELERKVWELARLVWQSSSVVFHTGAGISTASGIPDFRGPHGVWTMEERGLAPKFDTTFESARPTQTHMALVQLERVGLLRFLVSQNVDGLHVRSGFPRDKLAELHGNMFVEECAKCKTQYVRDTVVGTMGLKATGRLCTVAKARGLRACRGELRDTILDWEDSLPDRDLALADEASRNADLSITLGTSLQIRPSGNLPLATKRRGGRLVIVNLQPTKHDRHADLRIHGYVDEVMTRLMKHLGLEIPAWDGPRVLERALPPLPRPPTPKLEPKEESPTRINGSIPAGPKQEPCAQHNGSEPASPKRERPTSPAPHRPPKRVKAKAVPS
# Chain of UniProt P08842 (whole entry, looked up): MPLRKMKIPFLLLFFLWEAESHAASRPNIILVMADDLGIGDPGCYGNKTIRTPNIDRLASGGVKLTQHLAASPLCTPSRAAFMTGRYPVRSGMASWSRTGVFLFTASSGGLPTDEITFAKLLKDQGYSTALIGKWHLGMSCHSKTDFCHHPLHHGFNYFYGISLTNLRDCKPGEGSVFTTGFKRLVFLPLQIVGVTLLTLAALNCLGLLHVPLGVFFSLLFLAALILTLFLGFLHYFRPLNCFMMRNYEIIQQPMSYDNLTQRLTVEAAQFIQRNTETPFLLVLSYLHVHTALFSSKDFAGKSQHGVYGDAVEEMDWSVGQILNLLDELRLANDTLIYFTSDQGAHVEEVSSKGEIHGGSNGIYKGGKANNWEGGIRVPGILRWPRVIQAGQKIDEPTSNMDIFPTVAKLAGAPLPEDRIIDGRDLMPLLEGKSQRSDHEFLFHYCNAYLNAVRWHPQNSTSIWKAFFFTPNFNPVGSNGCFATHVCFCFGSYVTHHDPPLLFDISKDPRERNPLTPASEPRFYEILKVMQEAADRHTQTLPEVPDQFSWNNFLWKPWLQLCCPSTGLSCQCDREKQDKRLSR
# Chain of UniProt Q9NXA8 (whole entry, looked up): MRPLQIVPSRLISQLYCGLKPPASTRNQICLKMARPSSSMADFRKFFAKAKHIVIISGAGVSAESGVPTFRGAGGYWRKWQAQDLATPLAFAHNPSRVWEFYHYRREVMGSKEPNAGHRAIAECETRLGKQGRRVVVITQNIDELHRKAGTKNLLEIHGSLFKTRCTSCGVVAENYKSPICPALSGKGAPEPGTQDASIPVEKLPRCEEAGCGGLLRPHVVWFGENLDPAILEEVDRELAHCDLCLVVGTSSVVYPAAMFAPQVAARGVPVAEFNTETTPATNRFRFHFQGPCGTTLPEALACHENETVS
# Chain of UniProt P34914 (whole entry, looked up): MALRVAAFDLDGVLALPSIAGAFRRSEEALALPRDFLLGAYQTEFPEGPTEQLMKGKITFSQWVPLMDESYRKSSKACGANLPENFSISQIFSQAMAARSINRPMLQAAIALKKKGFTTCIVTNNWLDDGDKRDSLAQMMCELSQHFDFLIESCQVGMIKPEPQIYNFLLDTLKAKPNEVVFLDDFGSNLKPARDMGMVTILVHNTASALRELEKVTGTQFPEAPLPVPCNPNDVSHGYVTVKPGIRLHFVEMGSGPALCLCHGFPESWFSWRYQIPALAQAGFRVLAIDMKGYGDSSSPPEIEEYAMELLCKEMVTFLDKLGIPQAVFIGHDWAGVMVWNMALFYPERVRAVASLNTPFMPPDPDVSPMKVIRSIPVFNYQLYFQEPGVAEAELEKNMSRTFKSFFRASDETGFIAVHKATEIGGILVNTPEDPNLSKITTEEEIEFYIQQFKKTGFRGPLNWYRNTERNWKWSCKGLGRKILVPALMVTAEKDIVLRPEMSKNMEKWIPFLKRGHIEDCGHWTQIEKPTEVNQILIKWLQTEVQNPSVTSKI
# Chain of UniProt Q13255 (whole entry, looked up): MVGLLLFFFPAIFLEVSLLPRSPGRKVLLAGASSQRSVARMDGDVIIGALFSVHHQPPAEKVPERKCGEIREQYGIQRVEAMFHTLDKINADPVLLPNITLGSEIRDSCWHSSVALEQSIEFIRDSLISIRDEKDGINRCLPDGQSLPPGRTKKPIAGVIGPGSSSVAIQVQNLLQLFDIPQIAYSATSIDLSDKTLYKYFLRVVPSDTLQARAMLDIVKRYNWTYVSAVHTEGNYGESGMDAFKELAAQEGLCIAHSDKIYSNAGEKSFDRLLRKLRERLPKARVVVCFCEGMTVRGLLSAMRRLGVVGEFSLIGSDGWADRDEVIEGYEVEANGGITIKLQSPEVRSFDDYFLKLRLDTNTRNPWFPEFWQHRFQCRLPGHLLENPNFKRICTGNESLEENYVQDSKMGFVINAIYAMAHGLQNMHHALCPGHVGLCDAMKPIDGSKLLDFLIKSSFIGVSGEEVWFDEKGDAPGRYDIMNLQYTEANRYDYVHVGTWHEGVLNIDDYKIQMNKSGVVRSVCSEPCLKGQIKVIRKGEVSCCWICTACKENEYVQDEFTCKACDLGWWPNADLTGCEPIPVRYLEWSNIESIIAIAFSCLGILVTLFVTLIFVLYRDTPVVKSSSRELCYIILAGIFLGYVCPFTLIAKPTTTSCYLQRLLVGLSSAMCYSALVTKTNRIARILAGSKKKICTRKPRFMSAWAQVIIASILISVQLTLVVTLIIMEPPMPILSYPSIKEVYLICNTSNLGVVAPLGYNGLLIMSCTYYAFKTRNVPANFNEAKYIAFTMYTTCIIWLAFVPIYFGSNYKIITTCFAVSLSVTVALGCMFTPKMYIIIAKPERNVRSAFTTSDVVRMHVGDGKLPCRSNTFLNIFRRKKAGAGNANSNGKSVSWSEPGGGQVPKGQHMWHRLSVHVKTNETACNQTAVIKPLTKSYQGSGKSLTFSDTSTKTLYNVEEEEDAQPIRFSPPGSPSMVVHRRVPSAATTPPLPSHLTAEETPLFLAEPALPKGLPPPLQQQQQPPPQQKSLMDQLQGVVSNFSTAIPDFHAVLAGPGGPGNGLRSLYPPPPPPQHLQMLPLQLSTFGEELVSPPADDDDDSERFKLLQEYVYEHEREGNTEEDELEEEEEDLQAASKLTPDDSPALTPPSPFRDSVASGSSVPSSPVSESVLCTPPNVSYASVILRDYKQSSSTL
Compound,tested on,assay,system,setting,how to read,quantity,result
COc1ccc(O[C@@H]2O[C@H](COS(=O)(=O)O)[C@H](OS(=O)(=O)O)[C@H](O[C@@H]3O[C@H](C(=O)O)[C@@H](O[C@@H]4O[C@H](COS(=O)(=O)O)[C@H](OS(=O)(=O)O)[C@H](O[C@@H]5O[C@H](C(=O)O)[C@@H](OS(=O)(=O)O)[C@H](OCc6ccccc6)[C@H]5OS(=O)(=O)O)[C@H]4NC(C)=O)[C@H](OCc4ccccc4)[C@H]3OS(=O)(=O)O)[C@H]2NC(C)=O)cc1,Midkine,binding to tetrasaccharide,,,,IC50,5.3 µM
COCCOCCOCCOCCC(=O)NCc1cc(CNC(=O)CCOCCOCCOCCOC)cc(-c2cc3cc4nc(c(OC)c5[nH]c(cc6nc(cc2[nH]3)CC6(C)C)cc5-c2cc(CNC(=O)CCOCCOCCOCCOC)cc(CNC(=O)CCOCCOCCOCCOC)c2)CC4(C)C)c1,,,PBS,room temperature,,Qy absorption maximum,727 nm
Cc1c(C(=O)NNC(=S)Nc2ccc(Cl)cc2)nnn1Cc1nc2ccccc2[nH]1,topoisomerase II,"enzyme activity, inhibitor",,,,IC50,2.52 µM
O=C(O)C(=O)N[C@H](CCc1ccccc1)C(=O)O,"Lysine-specific demethylase 4E (KDM4E, Homo sapiens, UniProt B2RXH2)","demethylase activity, inhibitor, FDH-coupled",,,,IC50,39 µM
O=C(Nc1cccc(OCC2CCCN2)n1)Nc1csc(-c2ccncc2)n1 (stereo not shown),"Cyclin-dependent kinase 2 (CDK2, Homo sapiens, UniProt P24941)",ATP-competitive inhibitor,,CDK2/cyclin E2,,IC50,0.004 µM
Cc1cc(Nc2nc(CCc3cccc([N+](=O)[O-])c3)nc3cc(N4CCN(C)CC4)ccc23)n[nH]1,"Aurora kinase B (AURKB, Homo sapiens, UniProt Q96GD4)","kinase activity, inhibitor",,,,IC50,0.152 µM
O=C(Nc1ccc(Cl)c(C(F)(F)F)c1)Nc1ccc(Cl)c(C(F)(F)F)c1,"Mas-related G-protein coupled receptor member X2 (MRGPRX2, Homo sapiens, UniProt Q96LB1)",antagonist,,,,IC50,0.79 µM
COc1ccc(C2=C(C#N)C(OCC(=O)NNC(=S)Nc3cccc([N+](=O)[O-])c3)NC(c3nc4ccccc4[nH]3)=C2)cc1 (stereo not shown),DNA gyrase,enzyme activity,,,,IC50,0.94 µM
OC[C@H](OCc1ccccc1C(F)(F)F)[C@H](O)C[S@@+]1C[C@@H](O)[C@H](O)[C@H]1CO,Si,"isomaltase activity, inhibitor",rat intestinal disaccharidases,,,IC50,0.19 µM
O=C(O)CNC(=O)c1ccc(NC(=O)c2cc(Br)c(Br)[nH]2)cc1,"DNA gyrase subunit B (gyrB, Escherichia coli, UniProt P0AES6)","enzyme activity, inhibitor",,,,IC50,0.45 µM
Nc1nc2c(N)[n+]3cnc2n1[C@H]1C[C@H](O)[C@@H](COP(=O)([O-])OP(=O)(O)OC[C@H]2O[C@@H]3[C@H](O)[C@@H]2O)O1,"cADPR receptor, sea urchin",antagonist,sea urchin egg homogenate,,,IC50,0.22 µM
O=C(CSC(=S)Nc1ccc([N+](=O)[O-])cc1)c1cc2ccccc2oc1=O,alpha-glucosidase,,,,,IC50,85 ± 4 µM
C#CCCCC1(CCC(=O)N[C@@H](CCCCNC(=S)CCC(=O)O)C(=O)N[C@@H](C)C(=O)N[C@@H](C)C(=O)OC)N=N1,SIRT6,"deacetylase activity, inhibitor, HPLC",,with: H3K9ac substrate,,IC50,> 5000 µM
C[C@@H](c1cc(OCC(F)F)ccn1)n1cnc2c(N)nc(Cl)nc21,"cGMP-specific 3',5'-cyclic phosphodiesterase, catalytic domain 535-860 (PDE5A, Homo sapiens, UniProt O76074)",enzyme activity,,,,IC50,> 10 µM
CC(C)C(NC(=O)[C@@H](N)c1ccccc1)C(=O)NCc1cc(=O)c(O)c[nH]1 (stereo partly shown),tyrosinase,"diphenolase activity, inhibitor",,,,IC50,2.79 µM
C[C@@H](C(=O)N/N=C1\C(=O)Nc2c(Cl)ccc(Cl)c21)c1ccc(O)cc1,c-Met kinase,,,,,IC50,0.007 µM
Cc1ccc2nc(SCc3cn(-c4cccc(C(=O)O)c4)nn3)n(Cc3ccccc3)c(=O)c2c1,Topoisomerase-2,inhibitor,,,,IC50,0.0259 µM
O=C(/C=C1\C(=O)Nc2ccccc21)/C=C/c1ccc(F)cc1,PIM-1 kinase,"enzyme activity, inhibitor",,,,IC50,5 µM
Clc1ccccc1Cn1cc(CSc2nc(-c3ccccc3)c(-c3ccccc3)[nH]2)nn1,"Alpha-glucosidase MAL12 (MAL12, Saccharomyces cerevisiae S288c, UniProt P53341)","enzyme activity, inhibitor",,,,IC50,85.6 ± 0.4 µM
C#CCOc1ccc(C(=O)c2ccc(C(=O)N[C@@H](CCCCNC(=S)CCCCCCCCCCCCC)C(=O)N[C@@H](C)C(=O)N[C@@H](C)C(=O)OC)cc2)cc1,"NAD-dependent protein deacylase sirtuin-5, mitochondrial (SIRT5, Homo sapiens, UniProt Q9NXA8)","enzyme activity, inhibitor",,,,IC50,> 5000 µM
CC1=C(C(=O)c2ccc(C(=O)O)cc2)C(=O)c2ccccc2C1=O,"Glutathione reductase, mitochondrial (GSR, Homo sapiens, UniProt P00390)","enzyme activity, inhibitor",,,,IC50,0.7 µM
COc1ccc(C2CC3(CN(CC(=O)O)C(=O)O3)c3cc(Br)ccc3O2)cc1 (stereo not shown),"Aldo-keto reductase family 1 member B1 (Akr1b1, Rattus norvegicus, UniProt P07943)","enzyme activity, inhibitor",,,,IC50,0.58 µM
O=C(O)[C@@H]1[C@@H](O)[C@H](O)[C@@H](O)[C@@H]2O[C@@H]21,"Beta-glucuronidase (uidA, Escherichia coli, UniProt P05804)","enzyme activity, inhibitor, 4-MU fluorogenic substrate",,,,IC50,0.5 ± 0.1 µM
CCC(=O)Nc1nc2ccc(-c3ccc4ncn(CCN5CCOCC5)c(=O)c4c3)cc2[nH]1,Aurora A kinase,,,,,IC50,0.0219 µM
CC(=O)N[C@H]1NC[C@H](C(=O)O)[C@H](O)[C@@H]1O,cytosolic sialidase (rat mammary gland),"enzyme activity, inhibitor",,,,IC50,990 µM
CC1=C(Cn2c3ccc(Cl)c(=O)c-3nc3ccccc32)CCC(C)(C)C1,testosterone 5α-reductase,inhibitor,,,,IC50,10 µM
COC(=O)c1ccc2c(c1)NC(=O)/C2=C(\Nc1ccc2c(c1)CCN2C(=O)CN1CCOCC1)c1ccccc1,KIT,inhibitor,,,,IC50,0.01 µM
Cc1ccc(S(=O)(=O)N2CCN(C(=O)N(c3ccccc3)c3ccccc3)CC2)cc1,human lysosomal alpha-glucosidase,inhibitor,,,,IC50,25.1 µM
COc1ccc(O[C@@H]2O[C@H](COS(=O)(=O)O)[C@H](OS(=O)(=O)O)[C@H](O[C@@H]3O[C@H](C(=O)O)[C@@H](O[C@@H]4O[C@H](COS(=O)(=O)O)[C@H](OS(=O)(=O)O)[C@H](O[C@@H]5O[C@H](C(=O)O)[C@@H](OS(=O)(=O)O)[C@H](O)[C@H]5OS(=O)(=O)O)[C@H]4NC(C)=O)[C@H](O)[C@H]3OS(=O)(=O)O)[C@H]2NC(C)=O)cc1,Midkine,binding to tetrasaccharide,,,,IC50,10.6 µM
O=C(Nc1ccc(OC(F)(F)F)cc1)N[C@H]1CC[C@H](Oc2ccc(C(=O)OCc3ccccc3)cc2)CC1,"Bifunctional epoxide hydrolase 2 (Ephx2, Mus musculus, UniProt P34914)","enzyme activity, inhibitor",mouse,,,IC50,0.0057 µM
O=[N+]([O-])c1ccccc1CO[C@@H](CO)[C@H](O)C[S@@+]1C[C@@H](O)[C@H](O)[C@H]1CO,rat intestinal maltase,"maltase activity, inhibitor",rat intestinal disaccharidases,,,IC50,0.13 µM
"N=C(N)NCCC[C@H](NC(=O)[C@H](CSSC[C@H](NC(=O)[C@H](Cc1ccc(O)cc1)NC(=O)[C@H](Cc1c[nH]c2ccccc12)NC(=O)[C@H](CCCNC(=N)N)NC(=O)[C@@H](N)Cc1c[nH]c2ccccc12)C(=O)N[C@@H](CCCNC(=N)N)C(N)=O)NC(=O)[C@H](Cc1ccc(O)cc1)NC(=O)[C@H](Cc1c[nH]c2ccccc12)NC(=O)[C@H](CCCNC(=N)N)NC(=O)[C@@H](N)Cc1c[nH]c2ccccc12)C(N)=O (single isomer, unassigned)",phage lambda integrase,"excision, inhibitor",,"without DTT, dimer equivalents",,IC50,0.01 µM
Cc1cccc(C)c1NC(=O)C1CCN(Cc2ccccc2)C1 (stereo not shown),"Sodium channel protein type 4 subunit alpha (SCN4A, Homo sapiens, UniProt P35499)","sodium current, blocker",,"tonic block, 0.1 Hz",,IC50,67 ± 5 µM
O=C(O)CC[C@H](O)C(=O)O,"Gamma-butyrobetaine dioxygenase (BBOX1, Homo sapiens, UniProt O75936)","enzyme activity, inhibitor",,,,IC50,142 µM
CCCCCCCCCCCCCC(=S)NCCCC[C@H](NC(=O)c1ccc(C(=O)c2ccc(OC/C=C/CN=[N+]=[N-])cc2)cc1)C(=O)N[C@@H](C)C(=O)N[C@@H](C)C(=O)OC,SIRT6,"deacetylase activity, inhibitor, HPLC",,with: H3K9ac substrate,,IC50,619 ± 49 µM
C=CC(=O)Nc1cccc(Oc2nc(Nc3ccc(N4CCN(C)CC4)cc3)nc3ccoc23)c1,"Tyrosine-protein kinase BTK (BTK, Homo sapiens, UniProt Q06187)",inhibitor,,,,IC50,0.003 µM
OC[C@H](OCc1ccccc1Cl)[C@H](O)C[S@@+]1C[C@@H](O)[C@H](O)[C@H]1CO,Si,"sucrase activity, inhibitor",rat intestinal disaccharidases,,,IC50,0.09 µM
COc1cc2oc(=O)ccc2cc1-c1c(O)cc(O)c2c(=O)cc(-c3ccc(O)c(O)c3)oc12,alpha-amylase,inhibitor,,,,IC50,6.89 ± 1.17 µM
O=C(Nc1ccccc1)[C@]12C[C@H]1/C(=N\O)c1ccccc1O2,"Metabotropic glutamate receptor 1 (GRM1, Homo sapiens, UniProt Q13255)",negative allosteric modulator,,,,IC50,2.1 µM
O=C(NN=Cc1ccc(O)cc1)Nc1cc2c(Nc3ccc(F)c(Cl)c3)ncnc2cc1OC1CCOC1 (stereo not shown),"Epidermal growth factor receptor (EGFR, Homo sapiens, UniProt P00533, L858R/T790M)",,,,,IC50,> 1 µM
N=C(N)N/N=C1\CCc2c(C(=N)N)cccc21,human AdoMetDC F233A,inhibitor,,,relative to: wild type,IC50,increased
CC(C)C[C@@H](CN[C@H](Cc1ccccc1)C(N)=O)NC(=O)[C@H](Cc1c[nH]cn1)NC(=O)CNC(=O)[C@@H](NC(=O)[C@H](C)NC(=O)[C@H](Cc1c[nH]c2ccccc12)NC(=O)[C@H](CCC(N)=O)NC(=O)[C@H](N)Cc1ccccc1)C(C)C,"Gastrin-releasing peptide receptor (Rattus norvegicus, UniProt P52500)",binding,,literature species comparison,,IC50,0.062 ± 0.01 µM
N#Cc1ccc(N(Cc2ccc(OS(N)(=O)=O)c(F)c2)n2cnnc2)cc1,"Steryl-sulfatase (STS, Homo sapiens, UniProt P08842)","enzyme activity, inhibitor",JEG-3,,,IC50,0.01 to 0.1 µM

# Excerpt of the above:
Compound,tested on,assay,system,setting,how to read,quantity,result
COc1cc2oc(=O)ccc2cc1-c1c(O)cc(O)c2c(=O)cc(-c3ccc(O)c(O)c3)oc12,alpha-amylase,inhibitor,,,,IC50,6.89 ± 1.17 µM
O=C(Nc1ccccc1)[C@]12C[C@H]1/C(=N\O)c1ccccc1O2,"Metabotropic glutamate receptor 1 (GRM1, Homo sapiens, UniProt Q13255)",negative allosteric modulator,,,,IC50,2.1 µM
O=C(NN=Cc1ccc(O)cc1)Nc1cc2c(Nc3ccc(F)c(Cl)c3)ncnc2cc1OC1CCOC1 (stereo not shown),"Epidermal growth factor receptor (EGFR, Homo sapiens, UniProt P00533, L858R/T790M)",,,,,IC50,> 1 µM
N=C(N)N/N=C1\CCc2c(C(=N)N)cccc21,human AdoMetDC F233A,inhibitor,,,relative to: wild type,IC50,increased
CC(C)C[C@@H](CN[C@H](Cc1ccccc1)C(N)=O)NC(=O)[C@H](Cc1c[nH]cn1)NC(=O)CNC(=O)[C@@H](NC(=O)[C@H](C)NC(=O)[C@H](Cc1c[nH]c2ccccc12)NC(=O)[C@H](CCC(N)=O)NC(=O)[C@H](N)Cc1ccccc1)C(C)C,"Gastrin-releasing peptide receptor (Rattus norvegicus, UniProt P52500)",binding,,literature species comparison,,IC50,0.062 ± 0.01 µM
